Results collected from several papers.
Values joined by “and” are separate records of one study, mostly repeats; a detail may differ. ± marks the error that the study gave.
PPIA: Peptidyl-prolyl cis-trans isomerase A (PPIA, Homo sapiens, UniProt P62937)
UniProt P62937, sequence (whole entry, looked up): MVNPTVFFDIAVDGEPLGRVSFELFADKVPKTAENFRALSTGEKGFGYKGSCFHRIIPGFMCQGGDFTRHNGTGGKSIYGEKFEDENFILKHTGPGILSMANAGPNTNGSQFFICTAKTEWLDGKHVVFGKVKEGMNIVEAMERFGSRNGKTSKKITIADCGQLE
CD209: CD209 antigen (CD209, Homo sapiens, UniProt Q9NNX6)
UniProt Q9NNX6, sequence (whole entry, looked up): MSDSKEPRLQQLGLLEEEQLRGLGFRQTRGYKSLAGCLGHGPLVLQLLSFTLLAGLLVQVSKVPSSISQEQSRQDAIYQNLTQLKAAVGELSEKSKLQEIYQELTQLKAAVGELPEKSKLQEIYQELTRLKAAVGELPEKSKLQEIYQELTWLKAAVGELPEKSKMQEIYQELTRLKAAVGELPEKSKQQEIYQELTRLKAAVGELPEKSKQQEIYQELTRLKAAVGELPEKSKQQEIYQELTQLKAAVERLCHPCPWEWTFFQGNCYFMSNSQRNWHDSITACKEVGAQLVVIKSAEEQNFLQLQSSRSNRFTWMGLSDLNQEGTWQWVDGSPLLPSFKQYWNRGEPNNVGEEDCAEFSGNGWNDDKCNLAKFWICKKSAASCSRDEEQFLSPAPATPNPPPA
BCL2L1: Bcl-2-like protein 1 (BCL2L1, Homo sapiens, UniProt Q07817)
UniProt Q07817, sequence (whole entry, looked up): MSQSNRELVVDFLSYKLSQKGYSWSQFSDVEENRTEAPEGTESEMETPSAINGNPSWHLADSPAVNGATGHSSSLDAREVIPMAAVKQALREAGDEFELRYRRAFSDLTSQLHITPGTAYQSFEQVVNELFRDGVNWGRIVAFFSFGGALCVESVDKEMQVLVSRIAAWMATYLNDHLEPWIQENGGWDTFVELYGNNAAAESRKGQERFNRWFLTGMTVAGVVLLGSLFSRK
SOST: Sclerostin (SOST, Homo sapiens, UniProt Q9BQB4)
UniProt Q9BQB4, sequence (whole entry, looked up): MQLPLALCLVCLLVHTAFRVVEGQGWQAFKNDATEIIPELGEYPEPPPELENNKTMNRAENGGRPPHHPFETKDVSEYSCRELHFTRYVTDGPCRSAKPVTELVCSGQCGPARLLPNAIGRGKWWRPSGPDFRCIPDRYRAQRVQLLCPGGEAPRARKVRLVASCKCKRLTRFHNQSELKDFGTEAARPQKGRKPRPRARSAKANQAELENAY
LGALS4 C-terminal domain: Galectin-4, C-terminal domain (LGALS4, Homo sapiens, UniProt P56470)
UniProt P56470, sequence (whole entry, looked up): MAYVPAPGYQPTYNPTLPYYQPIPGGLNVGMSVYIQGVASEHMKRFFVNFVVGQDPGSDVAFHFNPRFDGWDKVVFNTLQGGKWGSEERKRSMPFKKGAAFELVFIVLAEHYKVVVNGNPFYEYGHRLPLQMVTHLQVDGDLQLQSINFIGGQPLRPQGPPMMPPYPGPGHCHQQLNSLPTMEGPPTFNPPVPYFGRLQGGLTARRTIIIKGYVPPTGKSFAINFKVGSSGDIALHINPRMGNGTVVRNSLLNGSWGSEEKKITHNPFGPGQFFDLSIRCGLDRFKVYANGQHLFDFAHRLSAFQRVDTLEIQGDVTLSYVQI
LGALS3: Galectin-3 (LGALS3, Homo sapiens, UniProt P17931)
UniProt P17931, sequence (whole entry, unmodified, looked up): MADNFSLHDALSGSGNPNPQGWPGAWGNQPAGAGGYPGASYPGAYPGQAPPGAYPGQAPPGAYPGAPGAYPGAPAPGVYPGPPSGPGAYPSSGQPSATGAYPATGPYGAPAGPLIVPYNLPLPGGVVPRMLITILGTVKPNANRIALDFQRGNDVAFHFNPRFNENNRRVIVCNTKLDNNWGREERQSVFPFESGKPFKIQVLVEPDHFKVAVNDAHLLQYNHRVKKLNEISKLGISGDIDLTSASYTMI
UniProt P29994, sequence (whole entry, unmodified, looked up): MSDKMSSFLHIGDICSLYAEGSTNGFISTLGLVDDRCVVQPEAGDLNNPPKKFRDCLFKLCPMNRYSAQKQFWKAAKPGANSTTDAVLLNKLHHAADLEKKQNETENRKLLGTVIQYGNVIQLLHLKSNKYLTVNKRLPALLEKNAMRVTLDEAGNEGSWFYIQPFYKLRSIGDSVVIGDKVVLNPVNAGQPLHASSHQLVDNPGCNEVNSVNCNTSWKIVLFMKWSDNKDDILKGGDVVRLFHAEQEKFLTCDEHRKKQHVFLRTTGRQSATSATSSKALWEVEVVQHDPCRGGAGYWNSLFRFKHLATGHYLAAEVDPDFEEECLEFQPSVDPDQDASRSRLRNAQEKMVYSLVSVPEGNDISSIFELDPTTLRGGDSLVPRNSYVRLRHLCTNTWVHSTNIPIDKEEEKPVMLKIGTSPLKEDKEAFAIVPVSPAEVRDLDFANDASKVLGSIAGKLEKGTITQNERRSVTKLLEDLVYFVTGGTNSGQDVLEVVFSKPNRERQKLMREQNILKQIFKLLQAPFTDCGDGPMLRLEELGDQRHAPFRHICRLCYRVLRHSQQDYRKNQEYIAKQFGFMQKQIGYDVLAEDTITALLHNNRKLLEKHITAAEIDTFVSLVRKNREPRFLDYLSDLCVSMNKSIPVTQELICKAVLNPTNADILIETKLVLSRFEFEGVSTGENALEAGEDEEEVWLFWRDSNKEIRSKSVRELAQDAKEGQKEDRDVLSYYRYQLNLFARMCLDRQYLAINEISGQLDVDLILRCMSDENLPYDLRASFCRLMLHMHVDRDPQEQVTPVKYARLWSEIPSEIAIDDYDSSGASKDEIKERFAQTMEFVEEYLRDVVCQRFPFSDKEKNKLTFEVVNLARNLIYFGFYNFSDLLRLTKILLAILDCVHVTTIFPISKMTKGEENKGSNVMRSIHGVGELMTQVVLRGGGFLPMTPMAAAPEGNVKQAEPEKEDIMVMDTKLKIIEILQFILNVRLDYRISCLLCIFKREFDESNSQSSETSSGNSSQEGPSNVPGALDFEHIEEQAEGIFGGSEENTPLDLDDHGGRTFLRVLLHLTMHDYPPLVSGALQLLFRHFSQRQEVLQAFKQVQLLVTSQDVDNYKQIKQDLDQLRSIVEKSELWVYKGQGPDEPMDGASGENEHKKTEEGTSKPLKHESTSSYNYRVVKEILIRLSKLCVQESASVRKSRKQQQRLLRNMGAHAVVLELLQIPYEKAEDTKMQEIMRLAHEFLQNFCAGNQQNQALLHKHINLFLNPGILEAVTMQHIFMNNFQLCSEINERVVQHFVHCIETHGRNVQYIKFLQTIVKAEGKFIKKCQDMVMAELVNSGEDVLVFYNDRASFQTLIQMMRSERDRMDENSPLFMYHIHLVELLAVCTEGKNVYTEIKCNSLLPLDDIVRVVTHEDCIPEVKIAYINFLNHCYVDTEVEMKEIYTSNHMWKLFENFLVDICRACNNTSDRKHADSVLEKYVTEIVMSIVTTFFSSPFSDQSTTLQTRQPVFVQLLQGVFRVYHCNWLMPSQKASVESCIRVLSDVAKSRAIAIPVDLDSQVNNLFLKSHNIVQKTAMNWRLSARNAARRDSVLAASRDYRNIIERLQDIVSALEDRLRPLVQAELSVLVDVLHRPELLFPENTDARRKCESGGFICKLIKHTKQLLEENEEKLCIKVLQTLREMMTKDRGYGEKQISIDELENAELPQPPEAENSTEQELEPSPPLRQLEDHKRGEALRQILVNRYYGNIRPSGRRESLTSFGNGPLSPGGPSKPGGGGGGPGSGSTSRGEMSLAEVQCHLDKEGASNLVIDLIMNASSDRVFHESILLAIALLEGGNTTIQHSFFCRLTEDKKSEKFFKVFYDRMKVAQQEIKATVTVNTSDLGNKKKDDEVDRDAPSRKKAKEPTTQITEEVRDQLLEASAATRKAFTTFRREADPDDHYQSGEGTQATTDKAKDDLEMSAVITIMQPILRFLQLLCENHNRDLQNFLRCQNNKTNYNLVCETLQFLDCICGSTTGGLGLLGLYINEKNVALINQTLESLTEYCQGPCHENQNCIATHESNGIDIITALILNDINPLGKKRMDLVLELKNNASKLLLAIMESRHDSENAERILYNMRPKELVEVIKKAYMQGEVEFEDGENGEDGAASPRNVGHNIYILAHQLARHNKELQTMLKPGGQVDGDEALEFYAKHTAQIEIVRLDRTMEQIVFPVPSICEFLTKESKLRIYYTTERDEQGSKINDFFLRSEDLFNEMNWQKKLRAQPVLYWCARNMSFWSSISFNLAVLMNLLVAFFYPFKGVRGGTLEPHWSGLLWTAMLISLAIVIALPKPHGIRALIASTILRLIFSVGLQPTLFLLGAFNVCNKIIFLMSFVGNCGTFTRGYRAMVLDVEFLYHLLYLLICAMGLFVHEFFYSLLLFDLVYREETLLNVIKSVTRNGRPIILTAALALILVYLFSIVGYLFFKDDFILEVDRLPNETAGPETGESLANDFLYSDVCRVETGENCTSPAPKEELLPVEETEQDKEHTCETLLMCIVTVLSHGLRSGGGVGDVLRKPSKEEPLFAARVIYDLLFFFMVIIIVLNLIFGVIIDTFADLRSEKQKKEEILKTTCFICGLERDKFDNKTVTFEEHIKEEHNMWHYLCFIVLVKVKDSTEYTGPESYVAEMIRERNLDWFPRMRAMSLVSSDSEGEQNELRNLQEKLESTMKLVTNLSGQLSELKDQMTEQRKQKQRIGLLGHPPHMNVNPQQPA
UniProt P40337, sequence (whole entry, looked up): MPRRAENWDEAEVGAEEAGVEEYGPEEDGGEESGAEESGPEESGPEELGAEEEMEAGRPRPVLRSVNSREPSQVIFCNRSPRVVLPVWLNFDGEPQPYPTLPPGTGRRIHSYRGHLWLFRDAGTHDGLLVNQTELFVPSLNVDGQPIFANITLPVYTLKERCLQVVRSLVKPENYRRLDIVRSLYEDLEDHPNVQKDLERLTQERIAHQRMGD
UniProt O43741, sequence (whole entry, looked up): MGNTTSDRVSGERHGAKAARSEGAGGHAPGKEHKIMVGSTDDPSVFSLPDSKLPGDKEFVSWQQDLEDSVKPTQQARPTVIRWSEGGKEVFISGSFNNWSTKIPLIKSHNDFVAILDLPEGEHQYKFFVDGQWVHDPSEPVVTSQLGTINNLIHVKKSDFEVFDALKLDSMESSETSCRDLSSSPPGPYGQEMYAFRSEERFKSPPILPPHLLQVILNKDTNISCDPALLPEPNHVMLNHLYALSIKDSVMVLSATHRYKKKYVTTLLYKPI

The Kd of CCN(CC)C(=O)C1CCCN(C(=O)Nc2ccc3nc(-c4ccco4)c(-c4ccco4)nc3c2)C1 (stereo not drawn) is reported as 10.2 µM (PPIA; binding, fluorescence).
COc1c(F)c(F)c(C(=O)N[C@H]2[C@@H](O)[C@@H](CO)O[C@@H](O[C@H]3[C@H](O)[C@@H](NC(C)=O)[C@H](OC)O[C@@H]3CO)[C@@H]2O)c(F)c1F gave a Kd of 3.3 ± 0.1 µM (Galectin-3, carbohydrate recognition domain (LGALS3, Homo sapiens, UniProt P17931)).
O=C(N[C@@H](Cn1cncn1)c1ccc(F)cc1F)c1ccc(-c2nnc(-c3ccccc3)o2)cc1 has a Kd of 0.07 µM (CYP51 (Trypanosoma cruzi, UniProt Q7Z1V1); binding, absorbance).
For NCc1cn([C@@H]2[C@@H](O[C@H]3C[C@H](C(=O)NCc4ccc(CO)cc4)[C@@H](C(=O)NCc4ccc(CO)cc4)C[C@@H]3OCCCl)O[C@H](CO)[C@@H](O)[C@@H]2O)nn1, the Kd was 52 µM (CD209; binding, ITC).
The Kd of NC(=O)c1ccc[n+]([C@@H]2O[C@H](COP(=O)([O-])OP(=O)(O)OC[C@H]3O[C@@H](n4cnc5c(N)ncnc54)[C@H](O)[C@@H]3O)[C@@H](O)[C@H]2O)c1 is reported as ~31 µM and 31 µM (kptA (Runella slithyformis, UniProt A0A7U3ZK32); binding, ITC).
With Cc1ccc(Oc2nc3cc(-c4ccc5c(ccn5C)c4)c(Cl)cc3[nH]2)cc1C(=O)O the Kd was 0.51 µM (PRKAB2/PRKAA1, gamma1; phosphorylated (Homo sapiens, UniProt O43741+Q13131); biolayer interferometry; AMPK complex α1β2γ1).
O=P(O)(O)O[C@@H]1[C@@H](O)[C@H](O)[C@H](O)[C@H](O)[C@H]1OP(=O)(O)O gave a Kd of 1.08 µM (Inositol 1,4,5-trisphosphate-gated calcium channel ITPR1, IP3-binding core (Itpr1, Rattus norvegicus, UniProt P29994, R568Q); binding, 3H-IP3 competition; IP3-binding core IBC^R568Q).
For C[n+]1cc2cc3cc(ccc31)NC(=O)CCCCC(=O)Nc1ccc3c(c1)cc(c[n+]3C)C(=O)Nc1ccc3[nH]cc(c3c1)CCNC2=O, the Kd was 0.13 ± 0.04 µM (c-KIT cKIT2 G-quadruplex DNA; thiazole orange displacement; with: 0.50 µM thiazole orange).
With CC[C@H](C)[C@H](NC(=O)[C@H](CCCNC(=N)N)NC(=O)[C@H](CCCCN)NC(=O)[C@H](CC(C)C)NC(=O)[C@H](CCC(N)=O)NC(=O)[C@H](C)NC(=O)CNC(=O)[C@H](CC(N)=O)NC(=O)[C@H](CCC(=O)O)NC(=O)[C@H](CCCNC(=N)N)NC(=O)[C@H](C)NC(=O)[C@H](Cc1c[nH]c2ccccc12)NC(=O)[C@H](CCC(N)=O)NC(=O)[C@H](CCC(=O)O)NC(=O)[C@H](CCC(=O)O)NC(C)=O)C(=O)N[C@@H](C)C(=O)N[C@@H](CC(=O)O)C(=O)N[C@@H](CC(=O)O)C(=O)N[C@@H](Cc1ccc(O)cc1)C(=O)N[C@@H](CC(N)=O)C(=O)N[C@@H](C)C(=O)N[C@@H](CCC(N)=O)C(=O)N[C@@H](Cc1ccc(O)cc1)C(=O)N[C@@H](CCC(=O)O)C(=O)N[C@@H](CCCNC(=N)N)C(=O)N[C@@H](CCCNC(=N)N)C(=O)N[C@@H](CCCNC(=N)N)C(=O)N[C@@H](CCC(N)=O)C(N)=O the Kd was 0.007 µM (BCL2L1; competitive fluorescence polarization; with: fluorescein-labelled peptide 10 nM).
O=C(Cc1ccc(Cl)cc1)Nc1ccc(S(=O)(=O)Nc2cnc3ccccc3n2)cc1 has a Kd of 1.23 µM (PPIA; binding, SPR; pH 7.4).
CS[C@@H]1O[C@H](COS(=O)(=O)O)[C@@H](OS(=O)(=O)O)[C@H](O[C@@H]2O[C@H](C(=O)O)[C@@H](O[C@@H]3O[C@H](COS(=O)(=O)O)[C@@H](OS(=O)(=O)O)[C@H](O[C@@H]4O[C@H](C(=O)O)[C@@H](OS(=O)(=O)O)[C@H](OS(=O)(=O)O)[C@H]4OS(=O)(=O)O)[C@H]3NC(C)=O)[C@H](OS(=O)(=O)O)[C@H]2OS(=O)(=O)O)[C@H]1NC(C)=O gave a Kd of 37.3 µM (SOST; ligand displacement, FP).
With N=C(N)NCC(=O)N(O)[C@@H](CCC(N)=O)C(=O)NC[C@H]1O[C@@H](c2c[nH]c(=O)[nH]c2=O)[C@H](O)[C@@H]1O the Kd was 1.62 µM (DNA-directed RNA polymerase subunit beta', N-terminal domain (rpoC, Streptococcus pyogenes serotype M1, UniProt P0C0E0)).
O=C(Nc1cccc(C(=O)Nc2ccc(S(=O)(=O)O)c3cc(S(=O)(=O)O)cc(S(=O)(=O)O)c23)c1)Nc1cccc(C(=O)Nc2ccc(S(=O)(=O)O)c3cc(S(=O)(=O)O)cc(S(=O)(=O)O)c23)c1 has a Kd of 135 ± 30 µM (E3 ubiquitin-protein ligase XIAP, BIR1 domain (XIAP, Homo sapiens, UniProt P98170, V86E); microscale thermophoresis).
The Kd of CC[C@H](C)[C@H](NC(=O)[C@H](CCCNC(=N)N)NC(=O)[C@H](CCCCN)NC(=O)[C@H](CC(C)C)NC(=O)[C@H](CCC(=O)O)NC(=O)[C@H](CCC(N)=O)NC(=O)[C@H](C)NC(=O)[C@@H](NC(=O)[C@H](Cc1c[nH]c2ccccc12)NC(=O)[C@@H](NC(=O)[C@H](CCC(=O)O)NC(=O)[C@@H]1CCCN1C(=O)[C@H](CCCNC(=N)N)NC(C)=O)[C@@H](C)CC)C(C)C)C(=O)NCC(=O)N[C@@H](CC(=O)O)C(=O)N[C@@H](CCC(=O)O)C(=O)N[C@@H](Cc1ccccc1)C(=O)N[C@@H](CC(N)=O)C(=O)N[C@@H](C)C(=O)N[C@@H](Cc1ccc(O)cc1)C(=O)N[C@@H](Cc1ccc(O)cc1)C(=O)N[C@@H](C)C(=O)N[C@@H](CCCNC(=N)N)C(=O)N[C@@H](CCCNC(=N)N)C(=O)N[C@H](C(=O)N[C@@H](Cc1ccccc1)C(=O)N[C@@H](CC(C)C)C(=O)N[C@@H](CC(N)=O)C(N)=O)C(C)C is reported as 0.0001 µM (BCL2L1; competitive fluorescence polarization; with: fluorescein-labelled peptide 10 nM).
CN(C)c1ccc2c(-c3ccc(C(=O)NCCCC[C@@H](NC(=O)[C@@H](CCCNC(=N)N)NC(=O)[C@@H](CCCNC(=N)N)NC(=O)[C@@H](CCCNC(=N)N)NC(=O)[C@@H](CCCNC(=N)N)NC(=O)[C@@H](CCCNC(=N)N)NC(=O)[C@@H](CCCNC(=N)N)NC(=O)CCCCCNC(=O)[C@@H](CCCNC(=N)N)NC(=O)CCCCCNC(=O)c4ccc(-c5ccnc(N)n5)s4)C(N)=O)cc3C(=O)[O-])c3ccc(=[N+](C)C)cc-3oc2c1 gave a Kd of 0.0127 µM (cGMP-dependent protein kinase 1, isoform alpha (PRKG1, Homo sapiens, UniProt Q13976); binding, fluorescence anisotropy; no cGMP and Mg2+).
For COc1c(F)c(F)c(C(=O)N[C@H]2[C@@H](O)[C@@H](CO)O[C@@H](S[C@@H]3O[C@H](CO)[C@H](O)[C@H](NC(=O)c4c(F)c(F)c(OC)c(F)c4F)[C@H]3O)[C@@H]2O)c(F)c1F, the Kd was 1.8 µM (Galectin-3 (LGALS3, Homo sapiens, UniProt P17931, R144S); cell-free assay, FP).
With CC[C@H](C)[C@H](NC(=O)[C@H](CC(=O)O)NC(=S)Nc1ccc2c(c1)C(=O)OC21c2ccc(O)cc2Oc2cc(O)ccc21)C(=O)N[C@@H](CC(C)C)C(=O)N[C@H](C(=O)N[C@H](C(=O)N[C@H](C(=O)NCC(=O)NCC(=O)O)C(C)C)[C@@H](C)CC)[C@@H](C)CC the Kd was 0.16 µM (His6-SUMO-Rgg3 Streptococcus pyogenes; direct fluorescence polarization; FITC-labelled compound, with: 10 nM).
With CC(=O)N[C@@H]1[C@@H](O[C@@H]2O[C@H](C(=O)O)[C@@H](O[C@@H]3O[C@H](COS(=O)(=O)O)[C@@H](OS(=O)(=O)O)[C@H](O[C@@H]4O[C@H](C(=O)O)[C@@H](OS(=O)(=O)O)[C@H](OS(=O)(=O)O)[C@H]4OS(=O)(=O)O)[C@H]3NC(C)=O)[C@H](OS(=O)(=O)O)[C@H]2OS(=O)(=O)O)[C@H](OS(=O)(=O)O)[C@@H](COS(=O)(=O)O)O[C@H]1n1ccnn1 the Kd was 20.4 µM (SOST; ligand displacement, FP).
With OC[C@H]1Oc2cc(Cc3ccc(F)cc3)cc3c2[C@@H](OC3)[C@H]1O the Kd was roughly 3000 µM (LGALS4 C-terminal domain; binding, competitive fluorescence polarization; 20 °C).
For O=[N+]([O-])c1cc(Br)cc([N+](=O)[O-])c1NS(=O)(=O)c1ccc(Br)cc1, Kd read “no binding” (PYR1 (Arabidopsis thaliana, UniProt O49686, R116A); isothermal titration calorimetry; outcome: no binding).
The Kd of CCCc1cc2c3c(c1CCC)O[C@H](CO)[C@H](O)[C@@H]3OC2 is reported as greater than 3000 µM (LGALS4 C-terminal domain; binding, competitive fluorescence polarization; 20 °C).
CC[C@H](C)[C@H](NC(=O)[C@H](CCCNC(=N)N)NC(=O)[C@H](CO)NC(=O)[C@H](CC(C)C)NC(=O)[C@H](CCC(=O)O)NC(=O)[C@H](CCC(N)=O)NC(=O)[C@H](C)NC(=O)[C@@H](NC(=O)[C@H](Cc1c[nH]c2ccccc12)NC(=O)[C@@H](NC(=O)[C@H](CCC(=O)O)NC(=O)[C@@H]1CCCN1C(=O)[C@H](CCCNC(=N)N)NC(=O)c1ccc2c(c1)C(=O)OC21c2ccc(O)cc2Oc2cc(O)ccc21)[C@@H](C)CC)[C@@H](C)CC)C(=O)NCC(=O)N[C@@H](CC(=O)O)C(=O)N[C@@H](CCC(=O)O)C(=O)N[C@@H](Cc1ccccc1)C(=O)N[C@@H](CC(N)=O)C(=O)N[C@@H](C)C(=O)N[C@@H](Cc1ccc(O)cc1)C(=O)N[C@@H](Cc1ccc(O)cc1)C(=O)N[C@@H](C)C(=O)N[C@@H](CCCNC(=N)N)C(N)=O has a Kd of 0.0038 ± 0.0014 µM (BCL2L1; fluorescence anisotropy).
With COc1c(F)c(F)c(C(=O)N[C@H]2[C@@H](O)[C@@H](CO)O[C@@H](S[C@@H]3O[C@H](CO)[C@H](O)[C@H](NC(=O)c4c(F)c(F)c(OC)c(F)c4F)[C@H]3OS(=O)(=O)O)[C@@H]2O)c(F)c1F the Kd was 0.21 µM (LGALS3; cell-free assay, FP).
COC(=O)c1ccc(CNC(=O)[C@@H]2C[C@@H](O)CN2C(=O)CC(C)(C)C)cc1 gave a Kd of 45.5 ± 2.6 µM (von Hippel-Lindau disease tumor suppressor, with Elongin B/C (VHL, Homo sapiens, UniProt P40337); isothermal titration calorimetry; 25 °C).
With CC(C)C1C=C2CCC3C(C)(C(=O)O)CCCC3(C)C2CC1 (stereo not drawn) the Kd was 660 µM (Replication protein A 70 kDa DNA-binding subunit, DBD-F (RPA1, Homo sapiens, UniProt P27694); fluorescence anisotropy competition; 25 °C).
COc1ccc(C(=O)N[C@H]2[C@@H](O)[C@@H](CO)O[C@@H](OC)[C@@H]2OS(=O)(=O)O)cc1 has a Kd of 370 µM (LGALS3; cell-free assay, FP).
With C[C@@H]1O[C@@H](O[C@H]2[C@H](O[C@H]3[C@H](O)[C@@H](O)C(O)O[C@@H]3CO)O[C@H](CO)[C@H](O)[C@@H]2O[C@H]2O[C@H](CO)[C@H](O)[C@H](O)[C@H]2O)[C@@H](O)[C@H](O)[C@@H]1O (stereo partly drawn) the Kd was 2300 µM (CD209; binding, NMR).
